Results from different studies.
“And” joins repeats or separate records; there may be more than shown. ± gives the spread as reported. Converted amounts (≈) assume the structure as drawn.
Organism: Mycobacterium tuberculosis

With `Cc1nc2ccc(C(F)(F)F)cn2c1C(=O)NCc1ccc2oc(-c3ccc(Cl)cc3)nc2c1` the MIC90 was > 10 µM (microbial growth; H37RV).
`NC(=O)c1cc(-c2ccco2)ccc1OCCc1cccc(F)c1` has an IC90 of 580 ± 340 nM (growth; H37Rv-LP; 120 h).
With `CCOc1cc(C=NNC(=O)c2cccnc2)ccc1OC(=O)CN1C(=O)CSC1=O.NNC(=O)c1ccncc1` the FICI was 2 (two-drug checkerboard; H37Rv; concentration not given, unit not given; lower means more synergy).
The IC90 of `COc1ccc2c(=O)c(C)c(-c3ccc(N4CCCCC4)cc3)[nH]c2c1` is reported as 1960 nM (microbial growth; H37RV).
For `O=C(NC12CC3CC(CC(C3)C1)C2)c1cc2cc(Cl)ccc2[nH]1`, the IC50 was 90 nM (microbial growth).
`Cc1nc2ccc(Br)cn2c1C(=O)NCc1ccc2oc(-c3ccc(OC(F)(F)F)cc3)nc2c1` has an MIC90 of 0.2 µM (≈ 0.109 µg/mL) (microbial growth; H37RV).
The IC50 of `CCc1ccc(C2CC(C(F)(F)F)n3ncc(C(=O)NCc4ccc(OC)cc4)c3N2)cc1` (stereo not drawn) is reported as 140 nM (bacterial growth, inhibitor; mmpL3-TetON).
`Cc1cc(Oc2nc(N3CC[C@@H](c4ccncc4)C3)ncc2F)[nH]n1` gave a normalised growth of 100% and 101% and 98% (OD; H37Rv PurF CRISPRi knockdown; 0.000122 µM, together with: anhydrotetracycline low).
For `O=C(CN1C(=O)CSC1=O)Oc1ccc(/C=N/NC(=S)Nc2cccc(Cl)c2)cc1Cl`, the MIC was 32.2 µM (Alamar blue; 192).
`Cc1nc2ccc(C(F)(F)F)cn2c1C(=O)NCc1ccc2oc(-c3ccc(OC(F)(F)F)cc3)nc2c1` gave an MIC90 of > 25 µM (microbial growth; H37RV).
For `CCC(CO)NCCNC(CC)CO.COc1cc(C=NNC(=O)c2ccncc2)ccc1OC(=O)CN1C(=O)CSC1=O`, the MIC was 0.5 µg/mL (growth in combination; H37Rv; together with: reference drug at 1/2 MIC).
`c1cc2c(s1)CCOC21CCN(Cc2ccc3c(c2)OCCO3)CC1` has an IC50 of 200 nM (bacterial growth).
With `Cc1nc2cc(Br)ccn2c1C(=O)NCc1ccc2oc(-c3ccc(OC(F)(F)F)cc3)nc2c1` the MIC90 was > 10 µM (microbial growth; H37RV).
`N#CC1(C(=O)NCCCNc2ccc(C(F)(F)F)cn2)CCCC1` gave an IC50 of 310 nM (bacterial growth, inhibitor; mmpL3-TetON).
The FIC index of `COc1ccc2nccc(CC[C@H]3OC[C@H](NC(=O)c4ccc5c(c4)NC(=O)CO5)CO3)c2c1` is reported as 1 (growth inhibition, checkerboard; H37Rv; together with: bedaquiline).
With `Cc1ccn2c(C(=O)NCc3ccccc3)c(C)nc2c1` the MIC90 was 2.5 µM (≈ 0.698 µg/mL) (microbial growth; H37RV).
`CCCc1ccc(-c2cccc(-c3nc4ccc5cc(C(=O)O)cc(O)c5c4[nH]3)c2)cc1` gave an IC50 of 8000 nM (resazurin; wild type; 168 h, nutrient-starved).
With `O=C(CN1C(=O)CSC1=O)Oc1ccc(/C=N/NC(=O)c2ccncc2)cc1` the MIC was 0.157 µM (Alamar blue; 192).
For `Cc1c(CN2CCN(C)CC2)cc(-c2ccc(Cl)cc2)n1-c1ccc(Cl)cc1`, the IC50 was 7880 nM (microbial growth).
For `C#CCN(Cc1ccc2nc(C)[nH]c(=O)c2c1)c1ccc(C(=O)N[C@H](CCC(=O)OC)C(=O)OC)cc1`, the MIC90 was > 100 µM (bacterial growth, inhibitor; H37Rv wild type).
The MIC of `CCC(CO)NCCNC(CC)CO.CCOc1cc(C=NNC(=S)Nc2cccc(Cl)c2)ccc1OC(=O)CN1C(=O)CSC1=O` is reported as 0.5 µg/mL (growth in combination; 192; together with: reference drug at 1/2 MIC).
`CCc1nc2ccc(OC(F)(F)F)cn2c1C(=O)NCc1ccc2oc(-c3ccc(OC(F)(F)F)cc3)nc2c1` has an MIC90 of > 25 µM (microbial growth; H37RV).
`NC(=O)c1cc(N2CCOCC2)ccc1OCCc1cccc(F)c1` has an IC90 of 2800 nM (growth; H37Rv-LP; 120 h).
Under “lung bacterial burden reduction”, `COc1ccc2ncc(F)c(C[C@H](O)[C@H]3OC[C@H](NCc4ccc5c(n4)NC(=O)CO5)CO3)c2c1` is recorded as ~3 log10 (H37Rv, mouse, IFN-gamma knockout; intraperitoneal, 150 mg/kg twice daily, 10 days; reference: untreated).
Under MIC50, `Cc1ccccc1/C=C/C(=O)N[C@@H](CO)C(=O)N[C@H](C(=O)N[C@H](Cc1ccccc1)C(=O)O)[C@@H](C)O` is recorded as “inactive” (mc2 6230; 5 days, 37 °C).
`Clc1ccc(Nc2nc(-c3ccccn3)cs2)nc1` has an IC50 of 990 nM (bacterial growth, inhibitor; mmpL3-TetON).
`NC(=O)c1cc(-c2ccsc2)ccc1OCCc1cc(F)cc(F)c1` gave a selectivity index of 300 (H37Rv-LP; reference: HepG2 CC50 over Mtb IC90).
With `CN1CCN(c2ccc(C(F)(F)F)cc2NC(=O)c2ccccn2)CC1` the IC50 was 13000 nM (bacterial growth, inhibitor; mmpL3-TetON).
For `CCC(CO)NCCNC(CC)CO.COC(=O)C=C1SC(=NN=Cc2ccc(OC(=O)CN3C(=O)CSC3=O)cc2)NC1=O`, the MIC was 0.5 µg/mL (growth in combination; 192; together with: reference drug at 1/2 MIC).
The MIC90 of `CCc1nc2ccc(Br)cn2c1C(=O)NCc1ccc2oc(-c3ccc(OC(F)(F)F)cc3)nc2c1` is reported as 0.4 µM (≈ 0.224 µg/mL) (microbial growth; H37RV).
`CCN(Cc1ccc2c(c1)OCO2)C(=O)CSc1nc(NC)c2ccccc2n1` has an IC50 of 17300 nM (microbial growth).
The MIC of `CCC(CO)NCCNC(CC)CO.O=C(CN1C(=O)CSC1=O)Oc1ccc(C=NNC(=O)c2ccccn2)cc1Br` is reported as 0.5 µg/mL (growth in combination; H37Rv; together with: reference drug at 1/2 MIC).
`COc1ccccc1-c1ccc(OCCc2cccc(F)c2)c(C(N)=O)c1` gave an IC90 of 49000 ± 19000 nM (growth; H37Rv-LP; 120 h).

For quick reference, copied from above:
`Cc1nc2ccc(C(F)(F)F)cn2c1C(=O)NCc1ccc2oc(-c3ccc(OC(F)(F)F)cc3)nc2c1` gave an MIC90 of > 25 µM (microbial growth; H37RV).
`Cc1nc2ccc(Br)cn2c1C(=O)NCc1ccc2oc(-c3ccc(OC(F)(F)F)cc3)nc2c1` has an MIC90 of 0.2 µM (≈ 0.109 µg/mL) (microbial growth; H37RV).
`c1cc2c(s1)CCOC21CCN(Cc2ccc3c(c2)OCCO3)CC1` has an IC50 of 200 nM (bacterial growth).
For `O=C(NC12CC3CC(CC(C3)C1)C2)c1cc2cc(Cl)ccc2[nH]1`, the IC50 was 90 nM (microbial growth).
`NC(=O)c1cc(-c2ccsc2)ccc1OCCc1cc(F)cc(F)c1` gave a selectivity index of 300 (H37Rv-LP; reference: HepG2 CC50 over Mtb IC90).
